Assay results pooled from the literature.
A part holds a random share of what one study measured. Substitutions count along the parent as printed.

Study 1 — technique: protein binding microarray; form: double-stranded DNA, one strand shown; sample: in vitro; concentration: not given; reference: not given; direction: higher = stronger binding; quantity: E-score
Target: Histone acetyltransferase KAT6A, winged helix 1, GST fusion (KAT6A, Homo sapiens, UniProt Q92794, residues 1-85)
Notes: 8-mer, flanks averaged, mean of 2 arrays, mostly near background
Construct (chain): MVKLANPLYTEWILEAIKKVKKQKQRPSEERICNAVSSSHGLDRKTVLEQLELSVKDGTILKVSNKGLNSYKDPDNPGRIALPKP
AAGGTATA: -0.186
CGTTCTAG: 0.0243
ATACGAAA: -0.146
CACGAAGG: 0.0563
CTTTGGAA: -0.0993
CGTAATCA: 0.049
GAATTGAC: -0.157
CTTGAGTA: -0.203
ACAACGTA: -0.215
AATCTCAT: -0.13
TCTCGACA: -0.174
ATGTACAA: -0.105
CTACCTTA: -0.0558
ATTTGTCC: -0.182
AGGTACTA: -0.173
CATCTCAC: -0.0824
CATCTTAG: -0.129
CTGGCGTC: 0.00856
CCCGATCG: 0.221
CATTGGAA: -0.151
TAGTAGAA: -0.097
AAGTTCAT: -0.191

Study 2 — technique: RNA Bind-n-Seq; form: RNA; sample: in vitro; concentration: 365 nM; reference: no-protein control; direction: higher = stronger binding; quantity: RBNS enrichment (R)
Target: RNA binding protein fox-1 homolog 2, RRM domain, GST-SBP tag (RBFOX2, Homo sapiens, UniProt O43251-10, residues 100-194)
Notes: natural RNA segment, single round, ends assumed
Target sequence (chain): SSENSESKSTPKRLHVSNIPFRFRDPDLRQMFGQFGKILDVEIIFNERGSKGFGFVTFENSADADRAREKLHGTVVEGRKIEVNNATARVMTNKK
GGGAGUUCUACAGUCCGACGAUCUUUUAGCCCCAAAUCUCUCAUAUUCGCUAGUGUUUAAAAGGCUAAGAAUAGUGGGGCCCAGCCGAUGUGGUAGGUGAUAAAGAGGCAUCUUUUCUAGAGACACAUUGGACUGGAAUUCUCGGGUGCCAA: 0.241
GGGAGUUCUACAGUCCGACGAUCUCUUCUUUGACUUUGUGCUUGCUCUUUAAAGUGUCCUAAGAAAAUUAAUUUUUUCAGGUAUUUUUCUAUUUAGUGUUGCAGCCAAAGAGUAUUUAAAUUAAGUCUUUGCUUGGAAUUCUCGGGUGCCAA: 0.464
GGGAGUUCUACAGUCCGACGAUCGACACUUGAUAGAAAGACUACUGGUUAAACACAAUAAACAAAGUUCAUUAUUCACUUAUUAGCAAGAAGGUAGCAUUAUCAUAAAGGAUUAGAUGACUUAAGUUAGCUAUUGGAAUUCUCGGGUGCCAA: 0.79
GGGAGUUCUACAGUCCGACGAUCGGUGGCAAAGGUAUAAUGUAUCCGUGUUUUGUUUGUGAAUUUUUUAUUGAACCCACCCACUCAGAUGCUAAGUCAACCCUGACCUCUGCCCCAUCCACACCAUUCUCCAUUGGAAUUCUCGGGUGCCAA: 0.66
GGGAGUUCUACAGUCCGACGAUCGUGAAAAAAUACAAAUUAAGGACCUGUGUUCAUAGACAAUCUAAACUGUGUUUCUGAAGUUUGUGCACAUUUUUCUUCACUGUAAUGUUAUUUUACAGCUGUUUGUUAAAUGGAAUUCUCGGGUGCCAA: 0.366
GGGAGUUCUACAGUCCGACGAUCGAACACACCGAGGAAACAUGUAGCGAGAAUCACAUACAAGGCUUGGUGUUUCAUAAGCAUGCCUGCUGACAGCUGUAUGUGGUACUGCAGUGUUUACCAUAAACAGGUACUGGAAUUCUCGGGUGCCAA: 1.78
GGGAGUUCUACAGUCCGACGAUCAACGUCUCAGGCUUAGAAAUAUAUGAAAUUGCUUUUUGAGAUUUUUGCGUGUGUGUUUGAUAUUUUUUACGAUAAUUAGCUGCAUGUGAAUUUUUCAUGACCUUCUUUACUGGAAUUCUCGGGUGCCAA: 0.63
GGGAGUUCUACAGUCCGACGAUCCUGCCCCUCGAGGGGGCCCUGCCUGCCGCGGGGCCUCCCCACAAGCCCCUCCCAAAGCGCCGGCCGACUCGCUGUCUCGCUGGGGACUCUUUCAGCCCUCGCGCCCGCCCUGGAAUUCUCGGGUGCCAA: 0.674

Study 3 — technique: RNA Bind-n-Seq; form: RNA; sample: in vitro; concentration: not given; reference: input RNA pool; direction: higher = stronger binding; quantity: bound/input enrichment
Target: RING finger protein unkempt homolog, zinc fingers 1-6, GST-SBP tag (UNK, Homo sapiens, UniProt Q9C0B0, residues 30-357)
Notes: RNA with constant flanks, human and mouse sites, ends assumed
Target sequence (chain): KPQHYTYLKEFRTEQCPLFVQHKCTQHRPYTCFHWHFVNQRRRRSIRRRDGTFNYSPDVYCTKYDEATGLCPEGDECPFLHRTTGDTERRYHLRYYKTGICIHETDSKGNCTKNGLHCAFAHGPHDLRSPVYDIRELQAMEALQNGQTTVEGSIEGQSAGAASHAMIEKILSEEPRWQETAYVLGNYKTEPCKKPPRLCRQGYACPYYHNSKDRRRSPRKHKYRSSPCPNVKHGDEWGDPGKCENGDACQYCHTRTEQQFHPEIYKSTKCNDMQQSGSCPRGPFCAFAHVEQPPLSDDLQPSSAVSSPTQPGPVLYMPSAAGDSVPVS
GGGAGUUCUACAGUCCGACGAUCUGCUGCUACAUGAACUUCACAGGGGCCCAAAGCCAUUGUCUGCAUGUGUCUGCCCAGAAGAUGCUAGACAAUGCUGCUUUCACCCUGUAUGAGUUCUGGCAGGAUGAAGCCUCCUGGAGACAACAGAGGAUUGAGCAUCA: 0.0704 ratio
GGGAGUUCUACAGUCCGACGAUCAGUGUUUCUCAUCAUCUGUUUCCCAGCAAGGUCUUUUUUUUUUCUACAUUGAAGUUCUGUCUAUGUAUCUUAAUCACAAAUGGUUUCAUUCACUUUACUUUUAAAAAUUUGUCCUUAAAUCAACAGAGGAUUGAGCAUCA: 0.223 ratio
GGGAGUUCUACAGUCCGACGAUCCCAGGCAGAGGAGAUAUGGAACAGAAUGACUCUGACAACCGUAGAAUAAUUCGCUAUCCAGAUAGUCAUCAACUUUUUGUUGGUAACUUGCCACAUGAUAUUGAUGAAAAUGAGCUAAAGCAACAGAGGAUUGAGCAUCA: 0.884 ratio
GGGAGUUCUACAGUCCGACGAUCUCAAGUGACCAGGAGGAAGGCCAUGGGCCUCCUGCCUUUGUGCCAAAAGAUCAAAAAGAAGGUUGUCUUCCCCAGAAGAUCUCUGCAAGUAAACCCGAGUCCCAGAGACGAGGUGCAGGCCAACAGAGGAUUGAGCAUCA: 0.0482 ratio
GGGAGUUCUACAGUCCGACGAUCGCUAAACAGGAAAUUCUUGAAAACAAAGAUGUGGUUGUUCAACAUGUUCAUUUUGAUGGACUUGGAAGGACUAAAGAUGAUAUCAUCAUUUGUGAAAUUGGAGAUGUUUUCAAGGCCAAACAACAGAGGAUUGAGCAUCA: 0.177 ratio
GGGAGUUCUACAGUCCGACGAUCCCAUGUCAGCGUCCCCGUCCUGUUCCCAGCUGCCUGUGGAAGAUGACGUUUAUGUAUGCGAAUAAGUCACACUGUUAACCAAGUCUCUCAGGAGUGUAGUGAUAGCUGCCACACUCUGGACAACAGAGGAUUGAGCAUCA: 0.203 ratio
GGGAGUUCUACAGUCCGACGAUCAAAAUAAAUAAUCUCAUCCCCAAACUGUAGUAAUUGUUACAAUUUUCUAUUUAAAAAAUGAAUAGUACAUGCAGAAAUUGACCUGAUUUCCAUUUGCAACAGGAAGACACUGGCUUUACACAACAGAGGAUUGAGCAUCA: 0.875 ratio
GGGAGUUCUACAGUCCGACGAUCGUCAUCGAUGCGGGAGUAUGUAGGAGACUUGUGGAACUGCUGAUGCAUAAUGAUUAUAAAGUGGUUUCUCCUGCUUUGCGAGCUGUGGGAAACAUUGUCACAGGGGAUGAUAUUCAGACACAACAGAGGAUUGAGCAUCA: 0.307 ratio

Study 4 — technique: universal PBM; form: double-stranded DNA, one strand shown; sample: in vitro; concentration: 600 nM; direction: higher = stronger binding; quantity: E-score
Target: Sal-like protein 4, full length isoform A (SALL4, Homo sapiens, UniProt Q9UJQ4, residues 1-1053)
Sequence of UniProt Q9UJQ4 (whole entry, looked up): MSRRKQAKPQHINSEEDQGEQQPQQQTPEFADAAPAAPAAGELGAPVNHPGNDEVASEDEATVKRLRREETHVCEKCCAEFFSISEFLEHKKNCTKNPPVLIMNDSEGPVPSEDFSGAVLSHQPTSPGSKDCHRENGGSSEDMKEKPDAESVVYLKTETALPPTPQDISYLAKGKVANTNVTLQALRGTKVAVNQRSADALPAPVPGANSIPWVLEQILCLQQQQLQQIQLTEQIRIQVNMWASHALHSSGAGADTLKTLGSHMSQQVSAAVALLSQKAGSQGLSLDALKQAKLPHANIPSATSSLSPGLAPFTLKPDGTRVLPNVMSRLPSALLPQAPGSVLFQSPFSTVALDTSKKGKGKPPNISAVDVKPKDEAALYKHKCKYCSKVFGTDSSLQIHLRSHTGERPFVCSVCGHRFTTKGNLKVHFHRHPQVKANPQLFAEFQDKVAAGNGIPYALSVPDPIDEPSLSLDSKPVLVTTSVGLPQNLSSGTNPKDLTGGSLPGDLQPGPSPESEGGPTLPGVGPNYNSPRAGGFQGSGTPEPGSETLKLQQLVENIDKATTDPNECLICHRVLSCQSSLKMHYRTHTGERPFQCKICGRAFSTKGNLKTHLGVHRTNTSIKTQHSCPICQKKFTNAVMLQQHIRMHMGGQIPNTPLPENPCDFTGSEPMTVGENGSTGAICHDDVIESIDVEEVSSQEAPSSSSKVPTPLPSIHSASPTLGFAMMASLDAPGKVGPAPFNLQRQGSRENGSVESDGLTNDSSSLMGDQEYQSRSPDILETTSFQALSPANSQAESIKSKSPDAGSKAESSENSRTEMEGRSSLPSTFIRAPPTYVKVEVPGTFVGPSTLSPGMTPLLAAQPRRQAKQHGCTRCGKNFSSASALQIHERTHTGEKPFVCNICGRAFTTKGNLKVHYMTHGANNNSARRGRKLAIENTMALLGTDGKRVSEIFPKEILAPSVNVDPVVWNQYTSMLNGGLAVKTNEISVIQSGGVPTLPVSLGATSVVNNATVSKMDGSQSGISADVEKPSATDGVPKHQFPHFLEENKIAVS
Notes: 8-mer, flanks averaged, mean of replicates
AACCCCCT: -0.199
ATATTGAG: 0.322
ATCGTACG: 0.0815
CCATTGCC: -0.116
AGAGATAA: 0.293
AAATCTAA: 0.226
CCAAGGAA: -0.0432
CTATCTGA: 0.00737
AGCCGTAG: -0.139
CGGAGAAG: -0.183
AGACCAGG: -0.274
ACCCCCGG: -0.308
CATCGAAC: 0.0394
ATGTGGAC: 0.0633
CACGGTAG: -0.106
AAAAAGAC: 0.242
GACCCGTA: -0.246

Study 5 — target: CCNB1, cyclin fold, Cln2 fusion (human); technique: yeast growth competition, sequencing; sample: yeast; notes: strong parent motif; reference: not given; direction: higher = stronger binding; quantity: normalised enrichment score
Parent: RBL2 docking peptide (human); STTRRRLFVENDS
STTRRRRFVENDS [L7R]: 1.1
STTRRRLFVWNDS [E10W]: 0.187
STTRYRLFVENDS [R5Y]: 0.729
STTRRRTFVENDS [L7T]: 0.481
STTRRRAFVENDS [L7A]: 1.38
STTRRRKFVENDS [L7K]: 0.53
STTRRRLAVENDS [F8A]: 0.218
STTRRRLFVQNDS [E10Q]: 0.225
QTTRRRLFVENDS [S1Q]: 1.11
STTRRRLFGENDS [V9G]: 0.736
STTRRRLCVENDS [F8C]: 0.711
STTRRELFVENDS [R6E]: 0.604
STTRRRSFVENDS [L7S]: 0.206
STTRRRLFTENDS [V9T]: 2.03
SKTRRRLFVENDS [T2K]: 2.29
STTRRRLVVENDS [F8V]: -0.122
STTRRRLFNENDS [V9N]: 1.38
STGRRRLFVENDS [T3G]: 0.418
STTRRRLFIENDS [V9I]: 0.263
STTRSRLFVENDS [R5S]: 0.255
STTRHRLFVENDS [R5H]: 0.519
STTRKRLLVENDS [R5K F8L]: 0.396
STTRRRLDVENDS [F8D]: 0.484
STTMRRLFVENDS [R4M]: 0.153
KTTRRRLFVENDS [S1K]: 0.764

For quick reference, copied from above (study 2):
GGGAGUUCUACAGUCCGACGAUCAACGUCUCAGGCUUAGAAAUAUAUGAAAUUGCUUUUUGAGAUUUUUGCGUGUGUGUUUGAUAUUUUUUACGAUAAUUAGCUGCAUGUGAAUUUUUCAUGACCUUCUUUACUGGAAUUCUCGGGUGCCAA: 0.63
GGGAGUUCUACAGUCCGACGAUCUCUUCUUUGACUUUGUGCUUGCUCUUUAAAGUGUCCUAAGAAAAUUAAUUUUUUCAGGUAUUUUUCUAUUUAGUGUUGCAGCCAAAGAGUAUUUAAAUUAAGUCUUUGCUUGGAAUUCUCGGGUGCCAA: 0.464
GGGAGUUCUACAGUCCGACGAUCCUGCCCCUCGAGGGGGCCCUGCCUGCCGCGGGGCCUCCCCACAAGCCCCUCCCAAAGCGCCGGCCGACUCGCUGUCUCGCUGGGGACUCUUUCAGCCCUCGCGCCCGCCCUGGAAUUCUCGGGUGCCAA: 0.674
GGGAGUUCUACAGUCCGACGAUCGGUGGCAAAGGUAUAAUGUAUCCGUGUUUUGUUUGUGAAUUUUUUAUUGAACCCACCCACUCAGAUGCUAAGUCAACCCUGACCUCUGCCCCAUCCACACCAUUCUCCAUUGGAAUUCUCGGGUGCCAA: 0.66
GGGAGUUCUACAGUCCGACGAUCGUGAAAAAAUACAAAUUAAGGACCUGUGUUCAUAGACAAUCUAAACUGUGUUUCUGAAGUUUGUGCACAUUUUUCUUCACUGUAAUGUUAUUUUACAGCUGUUUGUUAAAUGGAAUUCUCGGGUGCCAA: 0.366
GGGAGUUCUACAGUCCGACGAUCUUUUAGCCCCAAAUCUCUCAUAUUCGCUAGUGUUUAAAAGGCUAAGAAUAGUGGGGCCCAGCCGAUGUGGUAGGUGAUAAAGAGGCAUCUUUUCUAGAGACACAUUGGACUGGAAUUCUCGGGUGCCAA: 0.241
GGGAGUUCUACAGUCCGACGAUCGAACACACCGAGGAAACAUGUAGCGAGAAUCACAUACAAGGCUUGGUGUUUCAUAAGCAUGCCUGCUGACAGCUGUAUGUGGUACUGCAGUGUUUACCAUAAACAGGUACUGGAAUUCUCGGGUGCCAA: 1.78
